Assay results from different studies.
Every numbered part comes from another study and shows a few of its results, in no order. Positions count from the first letter of the parent shown.

Set 1 — target: CCNF, cyclin fold, Cln2 fusion (human); technique: yeast growth competition, sequencing; matrix: yeast; setting: strong parent motif; relative to: not given; direction: higher = stronger binding
Parent: CDKN1B docking peptide (human); PSACRNLFGPVDH
| Variant | normalised enrichment score |
| --- | --- |
| PSACRNLVGPVDH [F8V] | -0.393 |
| PSACRNLFKPVDH [G9K] | 4.04 |
| PSACCNLFGPVDH [R5C] | 0.204 |
| PSACRNLIGPVDH [F8I] | 0.663 |
| PSQCRNLFGPVDH [A3Q] | 3.98 |
| PSACRNAFGPVDH [L7A] | -0.0223 |
| PSACRNLFGPVGH [D12G] | 7.37 |
| PFACRNLFGPVDH [S2F] | 5.2 |
| LSACRNLFGPVDH [P1L] | 7.65 |
| CSACRNLFGPVDH [P1C] | 6.83 |
| PSACRNLFGPVDF [H13F] | 7.51 |
| PSACRNWFGPVDH [L7W] | 0.766 |
| PSACRKLFGPVDH [N6K] | 7.11 |
| PSACRNLGGPVDH [F8G] | 0.115 |
| PSAQRNLFGPVDH [C4Q] | 5.71 |
| PSACRNLFGPEDH [V11E] | 6.6 |
| PSACRILFGPVDH [N6I] | 5.08 |
| PSACRGLFGPVDH [N6G] | 2.44 |
| PSMCRNLFGPVDH [A3M] | 5.5 |

Set 2 — technique: protein-binding microarray; form: double-stranded DNA, one strand shown; matrix: in vitro; tested at: 250 nM; setting: 60-bp whole probe; added: salmon DNA 0.4 mg/ml; relative to: random background probes; direction: higher = stronger binding; shared flanks, not repeated: GCCTAGCAC … GTCTTGATTCGCTTGACGCTGCTG
Target: Interferon regulatory factor 5, full length, phosphomimetic (IRF5, Homo sapiens, UniProt Q13568-2, residues 1-514, K96S/S451D/S453D/S456D/S462D)
| Strand | log fluorescence [z-score] |
| --- | --- |
| TCATTTTTTTTAATTGAACTGTGCTAG | 0.951 |
| CTGACCTTTTCCTGAGGCAGGTGCTAG | 0.124 |
| TCAATTCTCCACTTGTGACTGTGCTAG | 0.349 |
| GACGGTTTCCTTTCGCTGACGTGCTAG | 4.2 |
| TTAGGACTGAGGTATCGGTTAGTGCTA | 2.5 |
| TTAGATTTCAGTCCCGATTAGTGCTAG | 1.5 |
| TGTAGAGTAGCTTTCTGAGGGTGCTAG | 0.476 |
| GACGAACTGGGGACTCGAGACGTGCTA | -0.511 |
| TCCCCTCTCATTCCAATTCTGTGCTAG | -0.114 |
| TCAAGTCTTGTTTTACAACTGTGCTAG | 0.204 |
| GACGGTCTCCCACTGCTGACGTGCTAG | -0.368 |
| GGGCATTTTTTTATCAATCAGTGCTAG | 0.445 |
| TCAACTCTCTACATGGGACTGTGCTAG | -0.0483 |
| GACGGTATCGGGACTTGGGACGTGCTA | 1.02 |
| TTAGATCTCAATCTCGATTAGTGCTAG | 0.569 |
| TTAGGTTCCCGTTTCCTTTAGTGCTAG | 0.398 |

Set 3 — target: NFE2L2, bZIP domain (human); technique: DHFR protein complementation; matrix: yeast; relative to: wild-type JUN-FOS pair; direction: higher = stronger binding
Setting: single substitutions, most at no-binding floor
Parent: JUN, bZIP domain (human); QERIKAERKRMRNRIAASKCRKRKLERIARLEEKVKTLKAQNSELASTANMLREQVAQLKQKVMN; partner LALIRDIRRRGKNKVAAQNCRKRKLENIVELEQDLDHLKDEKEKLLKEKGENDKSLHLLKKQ
| Variant | binding fitness [natural log] |
| --- | --- |
| I28G | -1.41 |
| S47A | -1.46 |
| A29C | -1.43 |
| S43R | -1.46 |
| E32V | -1.49 |
| M51P | -1.5 |
| E33D | -1.27 |
| T37N | -1.3 |
| K34T | -1.44 |
| K36S | -1.28 |
| E44M | -1.23 |
| S47C | -1.41 |
| K39F | -1.48 |
| R30P | -1.25 |
| K34V | -1.34 |
| V56L | -1.41 |
| A46E | -1.45 |
| R53K | -1.14 |
| K39P | -1.48 |
| E54R | -1.36 |
| L31K | -1.62 |
| M51W | -1.44 |
| K34N | -1.4 |
| L38N | -1.38 |
| L52Y | -1.56 |

Set 4 — technique: DHFR PCA, deep sequencing; matrix: yeast; added: (+)-ABA 0.0091 µM; relative to: wild-type fitted maximum; direction: higher = stronger binding
Target: ABI1, truncated, D143A, DHFR fusion (Arabidopsis thaliana)
Setting: methotrexate growth selection, single substitutions
Parent: PYL1, truncated, DHFR fusion (Arabidopsis thaliana); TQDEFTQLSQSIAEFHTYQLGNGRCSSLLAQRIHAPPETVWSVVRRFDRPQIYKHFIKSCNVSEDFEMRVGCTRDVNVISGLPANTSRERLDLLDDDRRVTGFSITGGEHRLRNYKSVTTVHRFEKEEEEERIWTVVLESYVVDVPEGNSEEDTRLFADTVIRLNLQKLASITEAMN; partner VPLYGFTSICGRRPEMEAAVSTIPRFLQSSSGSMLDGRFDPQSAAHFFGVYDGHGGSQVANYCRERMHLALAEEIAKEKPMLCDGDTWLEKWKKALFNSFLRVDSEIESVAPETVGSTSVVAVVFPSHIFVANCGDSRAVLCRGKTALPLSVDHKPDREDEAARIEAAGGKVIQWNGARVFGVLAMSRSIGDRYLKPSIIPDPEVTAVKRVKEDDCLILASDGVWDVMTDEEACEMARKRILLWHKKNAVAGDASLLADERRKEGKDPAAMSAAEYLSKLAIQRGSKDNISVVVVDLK
| Variant | relative binding score [%] |
| --- | --- |
| R24L | 4.84 |
| H122S | -4.54 |
| R88C | 19.6 |
| D48W | 1.44 |
| S117F | -10.6 |
| F103N | -6.13 |
| I52G | -2.02 |
| E4I | 25.8 |
| R49S | 16.2 |
| M176W | 2.5 |
| L28H | -1.89 |
| H110S | 50.4 |
| F66P | -3.16 |
| A158D | 5.93 |
| R32F | 11.5 |
| T86H | 22.3 |
| Y141R | 0.532 |

Set 5 — technique: universal PBM; form: double-stranded DNA, one strand shown; matrix: in vitro; tested at: 600 nM; direction: higher = stronger binding
Target: Sal-like protein 4, full length isoform A (SALL4, Homo sapiens, UniProt Q9UJQ4, residues 1-1053)
Chain of UniProt Q9UJQ4 (whole entry, looked up): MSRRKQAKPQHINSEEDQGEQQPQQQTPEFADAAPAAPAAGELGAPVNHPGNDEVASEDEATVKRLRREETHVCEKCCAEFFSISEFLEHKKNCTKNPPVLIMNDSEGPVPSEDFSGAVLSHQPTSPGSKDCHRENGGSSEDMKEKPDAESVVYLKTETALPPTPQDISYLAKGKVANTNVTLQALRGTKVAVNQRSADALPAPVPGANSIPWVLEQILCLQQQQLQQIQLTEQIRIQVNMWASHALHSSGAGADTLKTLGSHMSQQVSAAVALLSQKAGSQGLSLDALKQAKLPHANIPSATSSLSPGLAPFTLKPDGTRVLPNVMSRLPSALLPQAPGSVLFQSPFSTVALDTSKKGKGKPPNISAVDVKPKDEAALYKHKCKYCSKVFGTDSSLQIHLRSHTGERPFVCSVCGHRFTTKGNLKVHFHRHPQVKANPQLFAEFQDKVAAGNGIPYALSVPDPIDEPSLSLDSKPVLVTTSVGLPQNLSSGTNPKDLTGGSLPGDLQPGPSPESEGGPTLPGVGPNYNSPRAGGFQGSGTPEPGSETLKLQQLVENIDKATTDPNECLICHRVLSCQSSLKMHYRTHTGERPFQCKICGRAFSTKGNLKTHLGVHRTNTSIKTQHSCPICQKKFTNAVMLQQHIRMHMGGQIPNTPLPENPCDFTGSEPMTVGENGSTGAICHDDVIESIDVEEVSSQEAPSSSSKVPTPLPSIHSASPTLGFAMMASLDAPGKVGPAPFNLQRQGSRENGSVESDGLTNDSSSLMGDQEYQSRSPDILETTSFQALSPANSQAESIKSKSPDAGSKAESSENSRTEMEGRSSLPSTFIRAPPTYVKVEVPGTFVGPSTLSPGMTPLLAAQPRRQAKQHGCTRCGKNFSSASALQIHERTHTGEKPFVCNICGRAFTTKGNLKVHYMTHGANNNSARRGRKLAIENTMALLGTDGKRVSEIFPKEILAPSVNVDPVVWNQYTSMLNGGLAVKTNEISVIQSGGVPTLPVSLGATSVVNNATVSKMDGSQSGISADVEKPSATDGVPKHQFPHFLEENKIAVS
Setting: 8-mer, flanks averaged, mean of replicates
| Strand | E-score |
| --- | --- |
| AGCGTCCG | -0.278 |
| AAAAACTT | 0.326 |
| AGGGGAGC | -0.389 |
| GAAGCCGA | -0.205 |
| CCTTCTAG | -0.102 |
| TCCAGGGA | -0.234 |
| AAATCGAA | 0.224 |
| GGTGTGGA | -0.019 |
| GTAAGGTA | 0.214 |
| AATAAGCG | 0.158 |
| CACAAACC | -0.0416 |
| ACTCTGGC | -0.313 |
| AAAAGTCT | 0.174 |
| CGCGGGAC | -0.237 |
| CAAATATG | 0.347 |
| ACGAATAT | 0.349 |
| CAATTCTG | 0.0157 |
| AGTACGCA | -0.0687 |
| AATGAGAT | 0.289 |
| CACGTAGC | -0.285 |

Set 6 — technique: RNA Bind-n-Seq; form: RNA; matrix: in vitro; tested at: not given; relative to: input RNA pool; direction: higher = stronger binding
Target: RING finger protein unkempt homolog, zinc fingers 1-6, GST-SBP tag (UNK, Homo sapiens, UniProt Q9C0B0, residues 30-357)
Chain of UniProt Q9C0B0 (30-357, looked up): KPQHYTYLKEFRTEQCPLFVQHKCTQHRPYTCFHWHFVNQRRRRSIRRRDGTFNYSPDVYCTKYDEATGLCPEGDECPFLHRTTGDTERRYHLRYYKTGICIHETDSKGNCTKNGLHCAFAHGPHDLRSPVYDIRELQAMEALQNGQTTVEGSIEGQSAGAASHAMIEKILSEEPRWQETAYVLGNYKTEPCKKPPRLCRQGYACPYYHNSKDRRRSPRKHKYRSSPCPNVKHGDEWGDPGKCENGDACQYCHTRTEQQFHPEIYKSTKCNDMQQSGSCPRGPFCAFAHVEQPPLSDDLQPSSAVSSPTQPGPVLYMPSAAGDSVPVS
Setting: RNA with constant flanks, human and mouse sites, ends assumed
Shared flanks, not repeated: GGGAGUUCUACAGUCCGACGAUC … CAACAGAGGAUUGAGCAUCA
| Strand | bound/input enrichment [ratio] |
| --- | --- |
| AUUCCUUUGGAAACAGGACAAAAACAGUACAAUGUAGAUUAUAAACUGGAGACUUACUUGAAGAUUGCUAGGCUAUAUCUGGAGGAUGAUGAUCCAGUCCAGGCAGAGGCUUACAUAAAU | 0.227 |
| AUAAUGGACAAGCUUUCAACUGACAAAACUGUGAAAGUCCUAAAUAUAUUGGAGAAGAAUAUUCAGGAUGGAUCAAAGCUUUCCACUUUGUUAAAUCAUAAUAAUGAUACUGAAGAAGAA | 0.222 |
| CACAUUGGUGCUUUUCUUGUCUCUCUGCCUUCUGGAGAAAAGAUAACUUUUCUUGAUACUCCUGGACAUGCUGCCUUCUCAGCAAUGAGAGCCAGAGGAGCUCAGGUCACCGACAUUGUU | 0.121 |
| UCUUCUGCUAAUACACAGCCCCGGGGUCCCCUUUCUCAGGCACCAACUCCAGCACCUAAGUUUGCUCCAGUGGCUCCUAAAUUUACUCCCGUGGUUUCCAAGUUCAGCCCUGGUGCUCCA | 0.279 |
| UGGAUACAAUCGGACAAUUAUUUUCGCUCUGCUCUGUUUUGCAUGGAGUAUUAUUAUUAUUUUUUAAAUUGCAUUUUUACCUUUCAUGUGCCUGAAGGCUAUCCAAUACAUUCUGAAAGG | 18.4 |
| UGCCCCCAGGUUGCGUGUACAGGCGAGUCCCUAUGCCCUGUCUACCUGUCUUGUUCUUACUCACUUUCUCCCUUCAUGCCACUGCCCCACCUCUCGCUUCCUAAGUCUAACCUCUGCGCA | 0.447 |
| GAACCUGAGCCAGCAGAAGAGUACACUGAGCAAAGUGAAGUUGAAUCAACAGAGUAUGUAAAUAGACAGUUCAUGGCAGAAACACAGUUCACCAGUGGUGAAAAGGAGCAGGUAGAUGAG | 0.342 |
| GGCCAGGAACAGUCUUCACGGGGACAAAGAAUUUUAUCUAUUCCAAUUUGGCCCCCAAACCUAGGUAUCUCACAGAACUGUGUGUAUGAGGUACAGCAGGUACCAAAAGUAGAAAAGACA | 0.892 |
| UGCACUGAUAUCAUCCACCUCGAUGCCCAGCGGCUCCACUACUAUAGGGGCAAUUACAUGACCUUCAAAAAGAUGUACCAGCAGAAGCAGAAAGAACUGCUGAAACAGUAUGAGAAGCAA | 0.243 |
| ACACUGGGUUCUUUGGAAGCUCUACUGGAAUUUCUGAAAACAUCAGAAGUGCCCUAUGCAGGAAUUAACAUUGGCCCAGUGCAUAAAAAAGAUGUUAUGAAGGCUUCAGUGAUGUUGGAA | 0.135 |
| GAGAGCUUUAUUACCAGACAUGACCUUUCCGGAAAGGUUGUCAAUAUAGAUACAAACUCACUUAGAUCUUCCAUGAGGCCUGGCUUUGAAGACAUAAUCCGAAGAUGUAUCCAGAGGUUC | 0.318 |
